# Assay results pooled from the literature.
# Parts stem from different laboratories: compare values within a part only. ± gives the spread as reported.
# Sequence of UniProt P25090 (whole entry, looked up): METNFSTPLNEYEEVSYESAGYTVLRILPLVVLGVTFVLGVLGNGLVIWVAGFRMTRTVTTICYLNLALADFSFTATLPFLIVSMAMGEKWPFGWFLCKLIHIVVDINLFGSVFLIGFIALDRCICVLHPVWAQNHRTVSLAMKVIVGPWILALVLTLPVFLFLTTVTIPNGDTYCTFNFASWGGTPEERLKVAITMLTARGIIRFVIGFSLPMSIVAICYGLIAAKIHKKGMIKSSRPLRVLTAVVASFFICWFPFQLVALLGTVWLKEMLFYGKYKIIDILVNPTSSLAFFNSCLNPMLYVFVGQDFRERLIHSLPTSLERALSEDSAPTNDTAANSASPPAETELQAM

# Study 1 — cell line: HEK293 cells; method: resazurin; time: 24 h
Structure (SMILES),CC50
CC[C@H](C)[C@H](NC(=O)[C@H](Cc1ccccc1)NC(=O)[C@H](CC(=O)O)NC(=O)[C@H](CCCCN)NC(=O)[C@H](C)NC(=O)[C@H](CCCCN)NC(=O)[C@H](CC(N)=O)NC(=O)[C@H](CC(C)C)NC(=O)[C@H](Cc1c[nH]c2ccccc12)NC(=O)[C@H](CCC(=O)O)NC(=O)[C@H](CCCCN)NC(=O)[C@H](Cc1c[nH]c2ccccc12)NC(=O)CNC(=O)[C@H](C)N)C(=O)N[C@@H](CCCCN)C(=O)N[C@@H](CCC(=O)O)C(=O)N[C@@H](CCCCN)C(=O)NCC(=O)N[C@@H](CC(C)C)C(=O)NCC(=O)N[C@@H](CCSC)C(=O)N[C@@H](CC(C)C)C(=O)N[C@@H](CO)C(=O)N[C@@H](C)C(=O)N[C@@H](C)C(=O)N[C@@H](C)C(=O)N[C@@H](CC(N)=O)C(=O)N[C@@H](C)C(=O)N[C@@H](C)C(=O)N[C@@H](CC(C)C)C(=O)N[C@@H](CC(N)=O)C(=O)O,16.9 µM
CC[C@H](C)[C@H](NC(=O)[C@H](Cc1ccccc1)NC(=O)[C@H](CC(=O)O)NC(=O)[C@H](CCCCN)NC(=O)[C@H](C)NC(=O)[C@H](CCCCN)NC(=O)[C@H](CC(N)=O)NC(=O)[C@H](CC(C)C)NC(=O)[C@H](Cc1c[nH]c2ccccc12)NC(=O)[C@H](CCC(=O)O)NC(=O)[C@H](CCCCN)NC(=O)[C@@H](NC(=O)CN)[C@@H](C)O)C(=O)N[C@@H](CCCCN)C(=O)N[C@@H](CCC(=O)O)C(=O)N[C@@H](CCCCN)C(=O)NCC(=O)N[C@@H](CC(C)C)C(=O)NCC(=O)N[C@@H](CCSC)C(=O)N[C@@H](CC(C)C)C(=O)N[C@@H](CO)C(=O)N[C@@H](C)C(=O)N[C@@H](C)C(=O)N[C@@H](C)C(=O)N[C@@H](CC(N)=O)C(=O)N[C@@H](C)C(=O)N[C@@H](C)C(=O)N[C@@H](CC(C)C)C(=O)N[C@@H](CC(N)=O)C(=O)O,> 250 µM
CC[C@H](C)[C@H](NC(=O)[C@H](Cc1ccccc1)NC(=O)[C@H](CC(=O)O)NC(=O)[C@H](CCCCN)NC(=O)[C@H](C)NC(=O)[C@H](CCCCN)NC(=O)[C@H](CC(N)=O)NC(=O)[C@H](CC(C)C)NC(=O)[C@H](Cc1c[nH]c2ccccc12)NC(=O)[C@H](CCC(=O)O)NC(=O)[C@H](CCCCN)NC(=O)[C@@H](NC(=O)CNC(=O)[C@H](C)N)[C@@H](C)O)C(=O)N[C@@H](CCCCN)C(=O)N[C@@H](CCC(=O)O)C(=O)N[C@@H](CCCCN)C(=O)NCC(=O)N[C@@H](CC(C)C)C(=O)N[C@@H](CCC(=O)O)C(=O)N[C@@H](CCSC)C(=O)N[C@@H](CC(C)C)C(=O)N[C@@H](CO)C(=O)N[C@@H](C)C(=O)N[C@@H](C)C(=O)N[C@@H](C)C(=O)N[C@@H](CC(N)=O)C(=O)N[C@@H](C)C(=O)N[C@@H](C)C(=O)N[C@@H](CC(C)C)C(=O)N[C@@H](CC(N)=O)C(=O)O,> 250 µM

# Further values, each from its own experiment
Compound,target or system,assay,system,conditions,quantity,result
CC[C@H](C)[C@H](NC(=O)[C@H](Cc1c[nH]c2ccccc12)NC(=O)[C@H](CCCCN)NC(=O)[C@@H](NC(=O)[C@H](CC(C)C)NC(=O)[C@H](CC(=O)O)NC(=O)[C@H](CO)NC(=O)[C@@H](NC(=O)[C@@H](NC(=O)[C@H](CO)NC(=O)[C@@H](NC(=O)[C@@H](NC(=O)[C@H](CC(=O)O)NC(=O)[C@H](CCC(N)=O)NC(=O)[C@H](C)NC(=O)[C@H](CCSC)NC=O)[C@@H](C)CC)[C@@H](C)CC)[C@@H](C)O)[C@@H](C)CC)C(C)C)C(=O)N[C@H](C(=O)N[C@@H](CC(=O)O)C(=O)N[C@H](C(=O)N[C@H](C(=O)N[C@@H](CC(N)=O)C(=O)N[C@@H](CCCCN)C(=O)N[C@@H](Cc1ccccc1)C(=O)N[C@H](C(=O)N[C@@H](CCCCN)C(=O)N[C@@H](CCCCN)C(=O)O)[C@@H](C)O)C(C)C)[C@@H](C)O)[C@@H](C)CC,"FPR2 (Homo sapiens, UniProt P25090)","agonist, cell-based",,,EC50,0.0427 µM
CC(C)C[C@@H]1NC(=O)[C@H](CCCNC(=N)N)NC(=O)[C@@H]2CCCN2C(=O)[C@@H]2CSSC[C@H](NC(=O)CNC(=O)[C@@H]3CCCN3C(=O)[C@H](CCCCN)NC(=O)[C@H](CC(=O)O)NC(=O)[C@@H](NC(=O)CN)C(C)C)C(=O)N[C@@H](CCCNC(=N)N)C(=O)N[C@@H](Cc3ccc(O)cc3)C(=O)N[C@@H](CC(C)C)C(=O)N[C@@H](Cc3ccccc3)C(=O)NCC(=O)NCC(=O)N[C@H]3CSSC[C@H](NC(=O)CNC1=O)C(=O)N[C@@H](CCCCN)C(=O)NCC(=O)N[C@@H](CCCCN)C(=O)NCC(=O)N[C@@H](Cc1c[nH]cn1)C(=O)N[C@@H](CC(=O)O)C(=O)N[C@@H](Cc1ccc(O)cc1)C(=O)N[C@H](C(=O)N[C@@H](C)C(=O)N[C@@H](Cc1c[nH]c4ccccc14)C(=O)N[C@@H](CC(=O)O)C(=O)NCC(=O)N[C@H](C(=O)N[C@@H](Cc1ccccc1)C(=O)N[C@@H](CO)C(=O)N[C@@H](CC(=O)O)C(=O)O)[C@@H](C)O)CSSC[C@H](NC(=O)[C@H](CC(=O)O)NC(=O)[C@H](CC(=O)O)NC(=O)[C@H](CC(=O)O)NC(=O)[C@H](CO)NC(=O)[C@H](CCCCN)NC3=O)C(=O)N2,,electronic von Frey,adult mice,"intraplantar, 0.06 nmol/paw",paw withdrawal threshold,1.3 ± 0.2 g
CC[C@H](C)[C@H](NC(=O)CNC(=O)[C@H](C)NC(=O)[C@H](CCC(=O)O)NC(=O)[C@@H]1CCCN1C(=O)CNC(=O)[C@H](C)NC(=O)[C@H](CCC(=O)O)NC(=O)[C@H](C)NC(=O)[C@H](CC(=O)O)NC(=O)[C@H](C)NC(=O)[C@H](CCC(=O)O)NC(=O)[C@H](C)NC(=O)[C@H](CCC(=O)O)NC(=O)[C@@H]1CCCN1C(=O)[C@@H](N)CCC(=O)O)C(=O)NCC(=O)N[C@@H](C)C(=O)N[C@H](C(=O)N[C@@H](CC(C)C)C(=O)N[C@@H](CCCCN)C(=O)N[C@H](C(=O)N[C@@H](CC(C)C)C(=O)N[C@H](C(=O)N[C@H](C(=O)NCC(=O)N[C@@H](CC(C)C)C(=O)N1CCC[C@H]1C(=O)N[C@@H](C)C(=O)N[C@@H](CC(C)C)C(=O)N[C@H](C(=O)N[C@@H](CO)C(=O)N[C@@H](Cc1c[nH]c2ccccc12)C(=O)N[C@H](C(=O)N[C@@H](CCCCN)C(=O)N[C@@H](CCCNC(=N)N)C(=O)N[C@@H](CCCCN)C(=O)N[C@@H](CCCNC(=N)N)C(=O)N[C@@H](CCC(N)=O)C(=O)N[C@@H](CCC(N)=O)C(N)=O)[C@@H](C)CC)[C@@H](C)CC)[C@@H](C)O)[C@@H](C)O)C(C)C)C(C)C,"human erythrocytes, washed",,,"1 h, 37 °C, 2% v/v RBC suspension",HD50,56.9 ± 3.1 µmol/L
CC[C@H](C)[C@@H]([C@@H](CC(=O)N1CCC[C@H]1[C@H](OC)[C@@H](C)C(=O)N[C@H](C)[C@@H](O)c1ccccc1)OC)N(C)C(=O)[C@@H](NC(=O)[C@H](C(C)C)N(C)C(=O)OCc1ccc(NC(=O)[C@H](CCCNC(N)=O)NC(=O)[C@@H](NC(=O)CCCC(=O)NCCC(=O)N(C)CC(=O)N(C)CC(=O)N(C)CC(=O)N(C)CC(=O)N(C)CC(=O)N(C)CC(=O)N(C)CC(=O)N(C)CC(=O)N(C)CC(=O)N(C)CC(=O)N[C@H]2CSCCC(=O)N3CN4CN(C3)C(=O)CCSC[C@H](NC(=O)[C@@H](CC(=O)O)NC(=O)[C@H](Cc3cccc5ccccc35)NC(=O)[C@@H]3CCCN3C2=O)C(=O)N[C@@H](CCSC)C(=O)N[C@@H](CCCCNC(=N)N)C(=O)N[C@@H](CC(=O)O)C(=O)N[C@@H](Cc2c[nH]c3ccccc23)C(=O)N[C@@H](CO)C(=O)N[C@@H]([C@@H](C)O)C(=O)N2CCC[C@H]2C(=O)N2C[C@H](O)C[C@H]2C(=O)N[C@@H](Cc2c[nH]c3ccccc23)C(=O)N[C@H](C(N)=O)CSCCC4=O)C(C)C)cc1)C(C)C,,,"mouse, plasma","intravenous, 3 mg/kg",Vd,0.25 L/kg
CC[C@H](C)[C@H](NC(=O)CNC(=O)[C@H](C)NC(=O)[C@@H](N)CCC(=O)O)C(=O)NCC(=O)N[C@@H](C)C(=O)N[C@H](C(=O)N[C@@H](CC(C)C)C(=O)N[C@@H](CCCCN)C(=O)N[C@H](C(=O)N[C@@H](CC(C)C)C(=O)N[C@H](C(=O)N[C@H](C(=O)NCC(=O)N[C@@H](CC(C)C)C(=O)N1CCC[C@H]1C(=O)N[C@@H](C)C(=O)N[C@@H](CC(C)C)C(=O)N[C@H](C(=O)N[C@@H](CO)C(=O)N[C@@H](Cc1c[nH]c2ccccc12)C(=O)N[C@H](C(=O)N[C@@H](CCCCN)C(=O)N[C@@H](CCCNC(=N)N)C(=O)N[C@@H](CCCCN)C(=O)N[C@@H](CCCNC(=N)N)C(=O)N[C@@H](CCC(N)=O)C(=O)N[C@@H](CCC(N)=O)C(N)=O)[C@@H](C)CC)[C@@H](C)CC)[C@@H](C)O)[C@@H](C)O)C(C)C)C(C)C,"human erythrocytes, washed",,,"1 h, 37 °C, 2% v/v RBC suspension",HD50,1.7 ± 0.1 µmol/L
O=c1ccn(C2OC(F)(CO)C(O)C2O)c(=O)[nH]1 (stereo not shown),Lassa virus,,"HeLa, clade II Nigeria-322",,EC50,2.14 ± 0.2 µM
CC(C)C[C@H](NC(=O)[C@H](C)NC(=O)CNC(=O)[C@H](C)NC(=O)CNC(=O)[C@H](Cc1c[nH]cn1)NC(=O)[C@H](CCCCN)NC(=O)[C@H](CC(C)C)NC(=O)[C@H](C)NC(=O)[C@H](CCCCN)NC(=O)[C@H](CCCNC(=N)N)NC(=O)[C@@H](NC(=O)[C@H](CC(C)C)NC(=O)[C@H](CCCCN)NC(=O)[C@H](CCCCN)NC(=O)[C@H](CC(C)C)NC(=O)[C@H](CCCCN)NC(=O)[C@H](CCCCN)NC(=O)[C@H](CCCNC(=N)N)NC(=O)[C@H](Cc1c[nH]c2ccccc12)NC(=O)[C@H](CCCCN)NC(=O)[C@H](CCCNC(=N)N)NC(=O)[C@@H](N)CCCCN)C(C)C)C(=O)N[C@@H](CC(C)C)C(=O)N[C@@H](CO)C(N)=O,Drosophila melanogaster,"calcium response, calcium imaging","class IV da neurons, ppk1.9-Gal4 UAS-GCaMP6f",,EC50,74.5 µM

# A few entries again (further values, each from its own experiment):
Compound,target or system,assay,system,conditions,quantity,result
CC[C@H](C)[C@H](NC(=O)CNC(=O)[C@H](C)NC(=O)[C@@H](N)CCC(=O)O)C(=O)NCC(=O)N[C@@H](C)C(=O)N[C@H](C(=O)N[C@@H](CC(C)C)C(=O)N[C@@H](CCCCN)C(=O)N[C@H](C(=O)N[C@@H](CC(C)C)C(=O)N[C@H](C(=O)N[C@H](C(=O)NCC(=O)N[C@@H](CC(C)C)C(=O)N1CCC[C@H]1C(=O)N[C@@H](C)C(=O)N[C@@H](CC(C)C)C(=O)N[C@H](C(=O)N[C@@H](CO)C(=O)N[C@@H](Cc1c[nH]c2ccccc12)C(=O)N[C@H](C(=O)N[C@@H](CCCCN)C(=O)N[C@@H](CCCNC(=N)N)C(=O)N[C@@H](CCCCN)C(=O)N[C@@H](CCCNC(=N)N)C(=O)N[C@@H](CCC(N)=O)C(=O)N[C@@H](CCC(N)=O)C(N)=O)[C@@H](C)CC)[C@@H](C)CC)[C@@H](C)O)[C@@H](C)O)C(C)C)C(C)C,"human erythrocytes, washed",,,"1 h, 37 °C, 2% v/v RBC suspension",HD50,1.7 ± 0.1 µmol/L
